Results from different studies.
Each numbered part is a random draw from the data of one study; scales do not carry over between parts.
Chain of UniProt P14616 (whole entry, looked up): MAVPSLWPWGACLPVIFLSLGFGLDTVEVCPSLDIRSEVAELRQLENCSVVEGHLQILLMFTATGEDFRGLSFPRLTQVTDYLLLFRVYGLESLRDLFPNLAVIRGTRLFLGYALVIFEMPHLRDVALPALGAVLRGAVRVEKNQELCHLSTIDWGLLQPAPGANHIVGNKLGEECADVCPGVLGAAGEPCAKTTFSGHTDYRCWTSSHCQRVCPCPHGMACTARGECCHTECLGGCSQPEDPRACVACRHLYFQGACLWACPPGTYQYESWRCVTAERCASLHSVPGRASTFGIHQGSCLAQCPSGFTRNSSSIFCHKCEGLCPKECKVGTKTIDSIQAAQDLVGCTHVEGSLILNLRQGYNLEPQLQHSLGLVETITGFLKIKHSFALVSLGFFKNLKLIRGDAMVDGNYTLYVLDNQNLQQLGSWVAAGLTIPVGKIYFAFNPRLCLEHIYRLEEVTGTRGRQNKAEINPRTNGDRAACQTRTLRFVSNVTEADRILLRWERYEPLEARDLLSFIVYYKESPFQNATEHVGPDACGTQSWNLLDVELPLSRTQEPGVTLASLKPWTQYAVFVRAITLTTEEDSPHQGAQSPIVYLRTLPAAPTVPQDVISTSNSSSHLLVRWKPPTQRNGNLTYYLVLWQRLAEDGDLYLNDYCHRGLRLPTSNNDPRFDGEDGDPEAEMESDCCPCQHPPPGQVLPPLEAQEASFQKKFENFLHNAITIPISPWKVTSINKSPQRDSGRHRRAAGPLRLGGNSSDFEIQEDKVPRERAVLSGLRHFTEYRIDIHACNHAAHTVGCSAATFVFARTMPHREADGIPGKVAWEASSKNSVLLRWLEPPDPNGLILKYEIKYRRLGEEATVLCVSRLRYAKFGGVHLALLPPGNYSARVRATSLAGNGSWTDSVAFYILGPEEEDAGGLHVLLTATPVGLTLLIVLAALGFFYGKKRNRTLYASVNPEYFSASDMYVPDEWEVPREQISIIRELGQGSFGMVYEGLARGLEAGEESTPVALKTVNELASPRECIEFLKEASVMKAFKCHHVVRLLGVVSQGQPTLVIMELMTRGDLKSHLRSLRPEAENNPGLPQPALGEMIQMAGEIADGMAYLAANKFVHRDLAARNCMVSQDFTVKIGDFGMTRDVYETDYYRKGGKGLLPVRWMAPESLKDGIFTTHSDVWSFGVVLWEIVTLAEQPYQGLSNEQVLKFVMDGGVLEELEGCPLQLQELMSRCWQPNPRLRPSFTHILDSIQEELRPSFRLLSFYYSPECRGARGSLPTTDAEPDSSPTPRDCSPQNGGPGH
Chain of UniProt P42336 (whole entry, unmodified, looked up): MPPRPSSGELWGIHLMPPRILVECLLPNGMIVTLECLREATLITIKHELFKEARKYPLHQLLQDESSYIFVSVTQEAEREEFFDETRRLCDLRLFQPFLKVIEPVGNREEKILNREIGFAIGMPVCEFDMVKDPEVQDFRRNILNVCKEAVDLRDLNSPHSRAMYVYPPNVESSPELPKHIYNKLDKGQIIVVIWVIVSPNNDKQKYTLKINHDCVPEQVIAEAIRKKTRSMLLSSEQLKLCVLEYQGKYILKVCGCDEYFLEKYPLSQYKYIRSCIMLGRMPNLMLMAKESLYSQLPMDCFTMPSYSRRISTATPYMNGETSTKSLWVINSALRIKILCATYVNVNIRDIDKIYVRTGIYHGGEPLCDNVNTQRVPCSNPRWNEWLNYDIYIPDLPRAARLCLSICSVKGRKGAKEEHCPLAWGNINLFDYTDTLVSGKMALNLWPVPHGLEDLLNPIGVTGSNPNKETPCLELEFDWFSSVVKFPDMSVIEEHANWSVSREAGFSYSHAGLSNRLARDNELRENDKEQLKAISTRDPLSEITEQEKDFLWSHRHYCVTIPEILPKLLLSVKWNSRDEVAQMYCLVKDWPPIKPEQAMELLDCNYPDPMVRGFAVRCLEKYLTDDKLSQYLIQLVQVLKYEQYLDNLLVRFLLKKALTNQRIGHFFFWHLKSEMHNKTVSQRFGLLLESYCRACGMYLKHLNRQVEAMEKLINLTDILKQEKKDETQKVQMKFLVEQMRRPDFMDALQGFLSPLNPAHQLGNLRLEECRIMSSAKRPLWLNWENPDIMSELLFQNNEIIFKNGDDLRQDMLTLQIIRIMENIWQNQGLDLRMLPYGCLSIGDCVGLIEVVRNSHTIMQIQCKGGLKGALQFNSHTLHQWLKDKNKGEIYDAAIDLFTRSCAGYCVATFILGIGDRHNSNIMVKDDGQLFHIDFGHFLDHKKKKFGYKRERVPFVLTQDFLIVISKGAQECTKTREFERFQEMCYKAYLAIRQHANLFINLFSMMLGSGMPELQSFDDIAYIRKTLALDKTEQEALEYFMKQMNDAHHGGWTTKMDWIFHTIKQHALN
Chain of UniProt P08631 (whole entry, looked up): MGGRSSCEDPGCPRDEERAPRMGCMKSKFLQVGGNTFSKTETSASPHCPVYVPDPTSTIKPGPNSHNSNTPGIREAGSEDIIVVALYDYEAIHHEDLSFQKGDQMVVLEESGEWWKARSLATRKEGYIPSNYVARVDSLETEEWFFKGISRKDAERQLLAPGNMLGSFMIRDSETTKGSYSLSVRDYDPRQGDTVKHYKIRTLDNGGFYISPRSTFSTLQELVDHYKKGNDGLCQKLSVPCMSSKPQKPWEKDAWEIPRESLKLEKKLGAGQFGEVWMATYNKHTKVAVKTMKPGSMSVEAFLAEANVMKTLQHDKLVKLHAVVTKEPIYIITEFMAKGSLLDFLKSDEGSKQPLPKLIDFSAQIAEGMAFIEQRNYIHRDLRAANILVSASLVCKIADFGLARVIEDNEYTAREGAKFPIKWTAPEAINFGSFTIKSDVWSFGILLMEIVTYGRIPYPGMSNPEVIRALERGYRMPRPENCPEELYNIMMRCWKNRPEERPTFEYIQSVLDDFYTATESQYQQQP
Chain of UniProt O14757 (whole entry, looked up): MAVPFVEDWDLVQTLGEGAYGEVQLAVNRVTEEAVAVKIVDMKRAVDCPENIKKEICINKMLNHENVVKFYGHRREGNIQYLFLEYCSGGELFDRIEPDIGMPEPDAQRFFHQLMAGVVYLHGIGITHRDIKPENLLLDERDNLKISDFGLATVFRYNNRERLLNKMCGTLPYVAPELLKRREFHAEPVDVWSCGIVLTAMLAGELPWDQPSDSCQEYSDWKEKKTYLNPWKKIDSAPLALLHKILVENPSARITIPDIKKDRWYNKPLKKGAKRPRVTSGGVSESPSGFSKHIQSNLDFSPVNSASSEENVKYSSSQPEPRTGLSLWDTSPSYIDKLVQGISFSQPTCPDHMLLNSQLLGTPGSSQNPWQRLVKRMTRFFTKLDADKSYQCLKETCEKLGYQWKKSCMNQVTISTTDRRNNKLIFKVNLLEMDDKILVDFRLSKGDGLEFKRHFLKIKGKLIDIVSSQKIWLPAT
Chain of UniProt Q00535 (whole entry, looked up): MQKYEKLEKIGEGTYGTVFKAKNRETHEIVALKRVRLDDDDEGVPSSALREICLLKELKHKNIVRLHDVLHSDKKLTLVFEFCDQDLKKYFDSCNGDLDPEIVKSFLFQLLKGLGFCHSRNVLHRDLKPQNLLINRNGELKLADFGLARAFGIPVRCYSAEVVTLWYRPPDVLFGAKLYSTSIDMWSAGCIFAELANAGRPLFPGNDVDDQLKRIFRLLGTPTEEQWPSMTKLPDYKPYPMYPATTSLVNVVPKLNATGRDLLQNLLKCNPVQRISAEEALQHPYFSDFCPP
Chain of UniProt P04049 (whole entry, looked up): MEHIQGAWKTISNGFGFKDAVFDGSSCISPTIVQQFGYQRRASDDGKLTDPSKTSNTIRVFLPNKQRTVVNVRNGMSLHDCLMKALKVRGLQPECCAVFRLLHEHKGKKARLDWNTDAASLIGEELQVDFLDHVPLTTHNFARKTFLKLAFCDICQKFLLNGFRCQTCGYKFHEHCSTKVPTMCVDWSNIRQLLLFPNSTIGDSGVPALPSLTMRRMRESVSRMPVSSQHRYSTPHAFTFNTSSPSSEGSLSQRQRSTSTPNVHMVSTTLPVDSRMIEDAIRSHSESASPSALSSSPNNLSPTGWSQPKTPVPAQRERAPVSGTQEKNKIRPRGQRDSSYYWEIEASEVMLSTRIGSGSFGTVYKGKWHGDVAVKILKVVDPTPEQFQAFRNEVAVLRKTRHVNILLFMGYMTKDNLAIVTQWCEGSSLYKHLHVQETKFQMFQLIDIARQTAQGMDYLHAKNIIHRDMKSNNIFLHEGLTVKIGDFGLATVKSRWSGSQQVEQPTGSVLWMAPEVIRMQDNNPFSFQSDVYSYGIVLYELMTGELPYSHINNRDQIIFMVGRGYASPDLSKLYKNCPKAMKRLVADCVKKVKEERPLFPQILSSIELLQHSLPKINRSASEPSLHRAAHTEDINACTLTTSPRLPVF
Chain of UniProt Q04771 (whole entry, looked up): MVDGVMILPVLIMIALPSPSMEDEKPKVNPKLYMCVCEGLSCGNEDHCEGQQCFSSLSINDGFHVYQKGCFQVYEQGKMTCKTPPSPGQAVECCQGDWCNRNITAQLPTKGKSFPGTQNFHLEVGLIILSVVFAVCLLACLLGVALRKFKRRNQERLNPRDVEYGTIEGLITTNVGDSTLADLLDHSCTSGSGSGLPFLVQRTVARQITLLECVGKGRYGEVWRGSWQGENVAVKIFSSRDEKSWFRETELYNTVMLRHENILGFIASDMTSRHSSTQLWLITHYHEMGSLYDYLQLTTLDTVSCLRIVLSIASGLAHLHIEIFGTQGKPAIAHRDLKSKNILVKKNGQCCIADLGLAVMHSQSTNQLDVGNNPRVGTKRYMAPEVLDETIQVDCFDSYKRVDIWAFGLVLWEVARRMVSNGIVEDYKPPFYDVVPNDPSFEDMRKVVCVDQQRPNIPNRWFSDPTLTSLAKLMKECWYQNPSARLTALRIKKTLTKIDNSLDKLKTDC

Block 1
Compound: CCOCCn1cc(C(=O)Nc2ccc(-n3nc(-c4cccnc4)cc3C(F)(F)F)cn2)ccc1=O
Observed: cell-free assay
Method: competition with immobilised ligand
Concentration: 1 µM
target | remaining binding
PRPF4B (Homo sapiens, UniProt Q13523) | 97%
PKMYT1 (Homo sapiens, UniProt Q99640) | 100%
EGFR (Homo sapiens, UniProt P00533, G719C) | 97%
EPHB6 (Homo sapiens, UniProt O15197) | 94%
CSNK1G2 (Homo sapiens, UniProt P78368) | 100%
PIM1 (Homo sapiens, UniProt P11309) | 100%
CHEK1 (Homo sapiens, UniProt O14757) | 76%
CDK5 (Homo sapiens, UniProt Q00535) | 100%
CSF1R (Homo sapiens, UniProt P07333) | 100%
PRKACB (Homo sapiens, UniProt P22694) | 100%
CSNK1G1 (Homo sapiens, UniProt Q9HCP0) | 100%
PIK3CA (Homo sapiens, UniProt P42336, E545A) | 100%
PI4KB (Homo sapiens, UniProt Q9UBF8) | 100%
FLT3 (Homo sapiens, UniProt P36888, R834Q) | 100%
RET (Homo sapiens, UniProt P07949, V804M) | 100%

Block 2
Compound: O=C(c1cc2cc(O)ccc2[nH]1)c1cc2cc(O)ccc2[nH]1
Observed: enzyme activity
Action: inhibitor
Concentration: 0.5 µM
Reference: control
target | remaining activity [%]
TNK2 (Homo sapiens, UniProt Q07912) | 90.6
FGFR2 (Homo sapiens, UniProt P21802) | 98.5
ACVR1 (Homo sapiens, UniProt Q04771) | 123
RIPK2 (Homo sapiens, UniProt O43353) | 37.8
TAOK1 (Homo sapiens, UniProt Q7L7X3) | 85.6
RAF1 (Homo sapiens, UniProt P04049) | 104
PLK1 (Homo sapiens, UniProt P53350) | 101
INSRR (Homo sapiens, UniProt P14616) | 97.1
DYRK2 (Homo sapiens, UniProt Q92630) | 89
HCK (Homo sapiens, UniProt P08631) | 51.2

Block 3
Cell line: HaCaT
Concentration: 100 µM
Time: 18 h
Structure (SMILES) | viability [%]
CN1CCN(C2=Nc3ccccc3Oc3ccc(Cl)cc32)CC1 | 32.5
Nc1ccc(S(=O)(=O)Nc2ccccn2)cc1 | 66
CO[C@@]1(NC(=O)CSCC#N)C(=O)N2C(C(=O)O)=C(CSc3nnnn3C)CS[C@@H]21 | 93.9
COc1ccc(C[C@@H]2c3cc(OC)c(OC)cc3CC[N@+]2(C)CCC(=O)OCCCCCOC(=O)CC[N@@+]2(C)CCc3cc(OC)c(OC)cc3[C@H]2Cc2ccc(OC)c(OC)c2)cc1OC | 70.1
CCN(CC)CCOCCOC(=O)C1(c2ccccc2)CCCC1 | 107
CN/C(=N/CCSCc1nc[nH]c1C)NC#N | 110
CC(=O)N1CCN(c2ccc(OC[C@@H]3CO[C@@](Cn4ccnc4)(c4ccc(Cl)cc4Cl)O3)cc2)CC1 (racemic) | 15.6
CC(C)[N+](C)(CCOC(=O)C1c2ccccc2Oc2ccccc21)C(C)C | 110

Other studies, line by line
SMILES | species | dose | setting | quantity | result
CC(C)n1cnc(-c2ccc(F)cc2)c1-c1ncc(C(=O)Nc2ccc(N3CCN(C)CC3)cc2)[nH]1 | human, idiopathic pulmonary fibrosis | 30 mg once daily | trial, treatment-emergent | patients with Osteoporosis | 0%

Repeated from above (block 1):
target | remaining binding
PKMYT1 (Homo sapiens, UniProt Q99640) | 100%
EGFR (Homo sapiens, UniProt P00533, G719C) | 97%
EPHB6 (Homo sapiens, UniProt O15197) | 94%
CSNK1G2 (Homo sapiens, UniProt P78368) | 100%
PIM1 (Homo sapiens, UniProt P11309) | 100%
